# Published values gathered from unrelated publications.
# Lines come from different studies, so protocols differ. ± marks the error that the study gave.
SMILES,test,test system,setting,scale,endpoint,value
CC(C)(C)C(=O)OCOP(=O)(O)C1CCCN(O)C1=O (stereo not drawn),,cynomolgus monkey,"intravenous, dose not given",relative to: monkey over mouse,half-life ratio,10
CCC/C(=C\C1=C(C(F)(F)F)C(=O)c2ccccc2C1=O)C(=O)N(CC)CC,,mouse liver S9,"1 µM, phase II UGT conditions",,CLint,56 mL/min/kg
Cc1cccc(-c2cccc(C)n2)n1.Cc1cccc(-c2cccc(C)n2)n1.[Cl-].[Cl-].[Ru+2].c1ccc(-c2ccnc3c2ccc2c(-c4ccccc4)ccnc23)cc1,,phosphate buffer with NaCl,"pH 7.4, 37 °C, photoactivated, dialysis",,release from nanoassemblies,55.9%
Cc1ccc(-c2ccc(-c3cc4sccc4o3)cn2)nc1,TCSPC,dioxane,,,fluorescence lifetime,0.94 ns
Cc1nc(C)c(C=[N+]([O-])C(C)(C)C)nc1C,,"healthy human, both sexes, serum","oral, 1200 mg twice daily, 7 days",,Cmin,524 ng/mL
CC(C)c1cnc(-c2cc(Cl)ccc2F)cc1Nc1ccncc1C(=O)NC(CO)CO,measured: anaemia,human patients,"oral, dose not given, grade 3",,patients with related SAE,4.8%
[11CH3]Oc1ccc(Cc2cn[nH]c2)nc1-c1cccc([N+](=O)[O-])c1,,"human, arterial plasma","dose not given, 120 min",,parent fraction of radioactivity,~5%
Nc1nccc(-c2cn(C3CC3)c3ccccc23)n1,radiolabelled metabolite profiling,"human male, plasma","oral, 110 mg, 6 h",,plasma concentration,15.2 ng/g
O=C(c1ccccc1)N1C(c2ccc(OCC3CCN(CCCF)C3)cc2)c2ccc(O)cc2CC12CC2 (stereo not drawn),plasma protein binding,human plasma,,,fu,0.0154
COc1cc(NC(C)=O)c2c(c1O)-c1c(OC)c(OC)cc3c1C(C2)N(C)CC3 (stereo not drawn),,rat heart homogenate,"0.5 µg/mL, 24 h, room temperature, post-preparative storage",,remaining compound,100 ± 2.8%
O=C(NCCCN(CCCCN(CCCNC(=O)c1cccc(=O)n1[O-])C(=O)c1cccc(=O)n1[O-])C(=O)c1cccc(=O)n1[O-])c1cccc(=O)n1[O-].[89Zr+4],radio-TLC,PBS,"1 d, pH 7.4, 37 °C, with: Cu^2+ 10-fold excess",,intact complex,98.1 ± 2.7%
Cc1nc(N(C)C)nc(C)c1O,differential pulse voltammetry,,"pH pKa, 298 K",,anodic peak potential,0.17 V vs Ag/AgCl
OCc1cn(Cc2ccc(-c3noc(-c4ccc(OCC[18F])c(C(F)(F)F)c4)n3)cc2)nn1,,"rat, brain","intravenous, 1 h",,tracer uptake,0.71 %ID/g
C#CCOc1ccc(/C=C2\SC(=O)N(CC(=O)NCc3ccccc3)C2=O)cc1,inverse Kirkwood-Buff integrals,binary solvent mixture,"concentration not given, 298.15 K, mole fraction x1 0.20",,correlation volume,2440 cm³/mol
C[C@H](Oc1cc(-c2cnn(C3CCN(CC[18F])CC3)c2)cnc1N)c1c(Cl)ccc(F)c1Cl,PET imaging,"nude mouse, kidney","iv, 30 min post injection",,tracer uptake,3.2 ± 0.9 %ID/cc
CCC(=O)NC1CC=C(c2cc3c(Nc4ccc5scnc5c4)ncnc3s2)CC1 (stereo not drawn),,"BALB/c mouse, plasma","oral, 10 mg/kg, 30 min",,concentration,453 ng/mL
Clc1ccc2c(c1)nc(N1CC3CNCC3C1)n2Cc1ccccc1 (stereo not drawn),metabolic stability,"mouse, liver microsomes","0.1 µM, 30 min, pH 7.4",,compound remaining,85.9%
C[C@@H](C(=O)O)N(CC(=O)N(CCS)CC(N)=O)C(=O)CN(C(=O)CN(C(=O)CN(C(=O)CN(C(=O)CN(C(=O)CN(C(=O)CN(C(=O)CN(C(=O)CN(C(=O)CN(C(=O)CN(C(=O)CNCCS)[C@@H](C)c1ccccc1)[C@@H](C)C(=O)O)[C@@H](C)C(=O)O)[C@@H](C)c1ccccc1)[C@@H](C)C(=O)O)[C@@H](C)C(=O)O)[C@@H](C)c1ccccc1)[C@@H](C)C(=O)O)[C@@H](C)C(=O)O)[C@@H](C)c1ccccc1)[C@@H](C)C(=O)O,,distilled water,,,water solubility,≥ 2300 µM
C=C(c1cc(F)c(C(=O)O)c(F)c1)c1cc2c(cc1C)C(C)(C)CCC2(C)C,,"Sprague-Dawley rat, male, plasma","oral, 100 mg/kg, 24 h, sesame oil vehicle",,HDL level,30 ± 4.4 mg/dL
O=C([O-])c1cccc(CN(CCN(Cc2cn(Cc3ccccc3)nn2)Cc2cccc(C(=O)[O-])n2)Cc2cn(Cc3ccccc3)nn2)n1.[177Lu+3],,human serum,"1.5 h, 37 °C, with: 177Lu",,radiometal bound to chelator,55%
CCCC[C@H](NC(=O)CNC(=O)CNC(=O)CN1CCN(CC(=O)O)CCN(CC(=O)O)CC1)C(=O)N[C@H]1CC(=O)NCCCC[C@@H](C(N)=O)NC(=O)[C@H](Cc2c[nH]c3ccccc23)NC(=O)[C@H](CCCNC(=N)N)NC(=O)[C@@H](Cc2ccccc2)NC(=O)[C@H](Cc2c[nH]cn2)NC1=O [copper-64 labelled],,"female C57 mouse, B16/F1 melanoma","intravenous, 0.037 MBq, 2 h",relative to: tumour over lung,uptake ratio,22.1
CC=C1C(OC2OC(CO)C(O)C(O)C2O)OC=C(C(=O)OC)C1CC(=O)OCC1OC(OCCc2ccc(O)cc2)C(O)C(O)C1O (stereo not drawn),,"tumour-bearing BALB/c mouse, plasma","oral, 109.2 mg/kg",,t1/2,27.1 min
Brc1ccc(Nc2nc(NN=Cc3c[nH]c4ccccc34)nc(N3CCOCC3)n2)cc1,,human liver microsomes,in vivo extrapolated,,CLint,0 mL/min
O=[11C](OC(C(F)(F)F)C(F)(F)F)N1CCC(CNS(=O)(=O)c2ccc(Cl)cc2)CC1,PET,"Sprague-Dawley rat, hippocampus","intravenous, dose not given, baseline",,radioactivity uptake,1.55 SUV
CCC(=O)N[C@@H](C)C(=O)OCC(=O)N[C@@H](C)C(=O)O,,water,"pH 8, 65 °C",,depolymerization half-life,52.8 min
CC(C)C[C@@H](NC(=O)[C@H](NC(=O)[C@H]1CCCN1)[C@H](C)O)C(=O)N[C@H](Cc1c[nH]cn1)C(=O)N[C@@H](C(=O)N[C@H](Cc1c[nH]cn1)C(=O)N[C@H](CC(N)=O)C(=O)N[C@H](CCCNC(=N)N)C(=O)N[C@H](CCCNC(=N)N)C(=O)N[C@H](CCCNC(=N)N)C(=O)N[C@H](CCCNC(=N)N)C(=O)N[C@H](CCCNC(=N)N)C(N)=O)[C@H](C)O,,"beagle dog, plasma","intravenous, 3 mg/kg, single dose",,AUC(0-inf),28600 ng·h/mL
O=c1nc(NO)ccn1[C@@H]1O[C@H](CO)[C@@H](O)[C@H]1O,"Western blot, measured: CYP1A2","rat, arthritis model, liver","oral, 80 mg/kg twice daily, 5 days",relative to: control group,protein level,1.5 fold
O=C(O)[C@H]1O[C@@H](O[C@H](C[C@H]2c3c(F)cccc3-c3cncn32)[C@H]2CC[C@H](O)CC2)[C@H](O)[C@@H](O)[C@@H]1O,,"human, urine","oral, 200 mg, [14C]-navoximod dosed",relative to: dose,urinary excretion,59.7%
CCc1nc(-c2ccc(-c3ccc(CCC(N)(CO)CO)cc3)cc2)co1,,"Sprague-Dawley rat, male, whole blood","oral, 3 mg/kg, 6 h",,phosphorylation level,69%
CC(C)[C@H](NC(=O)CNC(=O)[C@H](CCC(N)=O)NC(=O)[C@H](C)N)C(=O)O,LC-MS/MS,"human, plasma","intravenous, 30 mg/kg three times daily, day 3, first dose, 10 min infusion, geometric mean",,AUC(0-inf),572 ng·h/mL
N=C(N)NCCC[C@@H]1NC(=O)[C@H](Cc2c[nH]c3ccccc23)NC(=O)[C@@H](CC2CCCCC2)NC(=O)[C@@H]2CCCN2C(=O)[C@@H](NC(=O)CCc2ccccc2)CCCNC1=O,,"C57BL/6J mice, spinal cord","intravenous, 1 mg/kg, two-compartment model",,apparent peripheral volume (V2/F),0.2 µg/(ng/g)
CC(C)(Sc1cc[n+]([O-])cc1-c1ccc(C#N)c2ccccc12)C(=O)OC1OC(C(=O)O)C(O)C(O)C1O (stereo not drawn),,plasma,"oral, 15 mg, normal renal function, fasted",,terminal half-life,864 min
CCCC[C@@H]1NC(=O)[C@@H](NC(=O)[C@H](CCC(=O)O)NC(=O)CNC(=O)CN2CCN(CC(=O)O)CCN(CC(=O)O)CCN(CC(=O)O)CC2)CCCCNC(=O)C[C@@H](C(N)=O)NC(=O)[C@H](C(C)C)NC(=O)[C@@H]2CCCN2C(=O)[C@H](CCCNC(=N)N)NC(=O)CNC(=O)[C@H](Cc2c[nH]c3ccccc23)NC(=O)[C@H](CCCNC(=N)N)NC(=O)[C@@H](Cc2ccccc2)NC(=O)[C@H](Cc2c[nH]cn2)NC(=O)[C@H](CCC(=O)O)NC1=O [gallium-67 labelled],,normal C57 mice,"intravenous, 0.037 MBq, 4 h",,intestine uptake,2 ± 0.81 %ID
C=C(c1ncc(C(=O)O)cn1)c1cc2c(cc1C)C(C)(C)CCC2(C)C,,"Sprague-Dawley rat, male, plasma","oral, 100 mg/kg, 3 h, sesame oil vehicle",,HDL level,54 ± 6.4 mg/dL
NS(=O)(=O)c1ccc(N2N=C(C(F)(F)F)CC2c2ccc(F)cc2F)cc1 (stereo not drawn),population PK model,Beagle dog,bootstrap median,,CL2/F to pyrazol metabolite,0.513 L/h
CC(C)(O)c1ncc([S@](N)(=O)=NC(=O)Nc2c3c(cc4c2CCC4)CCC3)s1,,healthy humans,"oral, dose not given, 14 days, study all active",,number of TEAEs,119
Oc1ccc2ccccc2c1/N=N/c1ccc(/N=N/c2ccccc2)cc1,,rat whole blood QC samples,"16.0 µg/L, 2 h, room temperature, short-term stability",,measured concentration,16.1 µg/L
Cn1c(=O)oc2ccc(-c3ccc(CC(C#N)NC(=O)C4CNCCCO4)c(F)c3)cc21 (stereo not drawn),,human,"oral, 10 mg once daily, TEAE, multiple ascending dose",,fibrinogen decreased incidence,0%
CC[C@H](C)[C@H](N)C(=O)N[C@@H](CC(C)C)C(=O)N1CCC[C@H]1C(=O)N[C@@H](Cc1c[nH]c2ccccc12)C(=O)N[C@@H](CCCCN)C(=O)N[C@@H](Cc1c[nH]c2ccccc12)C(=O)N1CCC[C@H]1C(=O)N[C@@H](Cc1c[nH]c2ccccc12)C(=O)N[C@@H](Cc1c[nH]c2ccccc12)C(=O)N1CCC[C@H]1C(=O)N[C@@H](Cc1c[nH]c2ccccc12)C(=O)N[C@@H](CCCNC(=N)N)C(=O)N[C@@H](CCCNC(=N)N)C(N)=O,fluorescence spectroscopy,DMPC/DMPG 7:3 SUVs,"lipid/peptide 50:1, excitation 295 nm, with: lipid 726 µM",,Trp emission maximum,346 nm
CCCCCCCCCCCCCCCCCC(=O)Nc1ccn(C2OC(CO)C(O)C2(F)F)c(=O)n1 (stereo not drawn),dialysis,PBS,"pH 7.4, 37 °C, Tween 80/ethanol",,release rate constant,0.328 h⁻¹
CC/C=C\C/C=C\C/C=C\C/C=C\C/C=C\CCCCOC(CC)C(=O)O (stereo not drawn),"radioactivity, 14C-labelled","Wistar rat, male, liver","oral, 100 mg/kg, 3 days",,tissue concentration,2.7 µg equivalents/g tissue
CCN(CC)c1ccc2c(-c3ccccc3C(=O)OCCOCCOCC[18F])c3ccc(=[N+](CC)CC)cc-3oc2c1,microPET,"rat, heart","dose not given, 5 min post injection",,radioactivity concentration,16 ± 2 kBq/cm³

# Excerpt of the above:
SMILES,test,test system,setting,scale,endpoint,value
CCC/C(=C\C1=C(C(F)(F)F)C(=O)c2ccccc2C1=O)C(=O)N(CC)CC,,mouse liver S9,"1 µM, phase II UGT conditions",,CLint,56 mL/min/kg
C#CCOc1ccc(/C=C2\SC(=O)N(CC(=O)NCc3ccccc3)C2=O)cc1,inverse Kirkwood-Buff integrals,binary solvent mixture,"concentration not given, 298.15 K, mole fraction x1 0.20",,correlation volume,2440 cm³/mol
NS(=O)(=O)c1ccc(N2N=C(C(F)(F)F)CC2c2ccc(F)cc2F)cc1 (stereo not drawn),population PK model,Beagle dog,bootstrap median,,CL2/F to pyrazol metabolite,0.513 L/h
CCc1nc(-c2ccc(-c3ccc(CCC(N)(CO)CO)cc3)cc2)co1,,"Sprague-Dawley rat, male, whole blood","oral, 3 mg/kg, 6 h",,phosphorylation level,69%
